# Experimental data of several laboratories.
# Compare with care: the assays were run in different laboratories. ± gives the spread as reported.
# Cell line: HEK-293T
SMILES,observed,technique,time,IC50
Clc1ccc2ccc3[n+](c2c1)[Ir-3]12([c]4ccccc4-3)([c]3ccccc3-c3ccc4ccc(Cl)cc4[n+]31)[n+]1ccccc1-c1cccc[n+]12.F[P-](F)(F)(F)(F)F,cell growth,MTT,72 h,3.6 ± 0.5 µM
Cc1ccc(C(C)C)cc1.O=C(N=P(c1ccccc1)(c1ccccc1)c1ccccc1)c1ccccn1.[Cl-].[Cl-].[Ru+2],cell growth or viability,MTT,24 h,2.8 µM
COc1ccc(CONC(=O)C2OC(C)(C)OC2COP(=O)(OCOC(=O)C(C)(C)C)OCOC(=O)C(C)(C)C)c(OC)c1 (stereo not shown),cytotoxicity,Alamar Blue,,> 200 µM
Cc1ccc(C(C)C)cc1.O=C(N=P(c1ccccc1)(c1ccccc1)c1ccccc1)c1[c-]cccc1.[Cl-].[Ru+2],cell growth or viability,MTT,24 h,4.1 µM
COc1ccc(N2C(=O)C=CC2=O)cc1,cell growth or viability,MTT,24 h,> 100 µg/mL
O=C(Nc1ccc([N+](=O)[O-])cc1Cl)c1cc(F)ccc1O,,CCK-8,24 h,12.1 µM
[Fe+2].c1ccc(N=P(c2ccccc2)(c2ccccc2)[c-]2cccc2)cc1.c1ccc(N=P(c2ccccc2)(c2ccccc2)[c-]2cccc2)cc1,cell growth or viability,MTT,74 h,45 µM
O=C([O][Ti+2][O]C(=O)c1ccc([P+]([Au-][Cl])(c2ccccc2)c2ccccc2)cc1)c1ccc([P+]([Au-][Cl])(c2ccccc2)c2ccccc2)cc1.c1cc[cH-]c1.c1cc[cH-]c1,cell growth or viability,XTT,72 h,20.1 µM
[Cl][Pd-2]1([Cl])[N+](=P(c2ccccc2)(c2ccccc2)c2ccccc2)Cc2cccc[n+]21,cell growth or viability,MTT,,~45 µM
O=C(O)c1ccc([P+]([Au-][Cl])(c2ccccc2)c2ccccc2)cc1,cell growth or viability,XTT,24 h,34.2 µM
C1=CCCC=CCC1.F[P-](F)(F)(F)(F)F.[Pt+][c]1ccccc1P(=Nc1ccccc1)(c1ccccc1)c1ccccc1,cell growth or viability,MTT,24 h,0.94 µM
Cc1ccc(C(C)C)cc1.[Cl-].[Cl-].[Ru+2].c1ccc(P(=Nc2cccc3cccnc23)(c2ccccc2)c2ccccc2)cc1,cell growth or viability,MTT,24 h,2.2 µM
C1=CCC=C1.[Cl][Pd-2]1([Cl])[N+](=P(c2ccccc2)(c2ccccc2)C2C=CC=C2)Cc2cccc[n+]21.[Fe+2],cell growth or viability,MTT,74 h,15 µM

# A few entries again:
SMILES,observed,technique,time,IC50
O=C([O][Ti+2][O]C(=O)c1ccc([P+]([Au-][Cl])(c2ccccc2)c2ccccc2)cc1)c1ccc([P+]([Au-][Cl])(c2ccccc2)c2ccccc2)cc1.c1cc[cH-]c1.c1cc[cH-]c1,cell growth or viability,XTT,72 h,20.1 µM
[Cl][Pd-2]1([Cl])[N+](=P(c2ccccc2)(c2ccccc2)c2ccccc2)Cc2cccc[n+]21,cell growth or viability,MTT,,~45 µM
